Results gathered from unrelated publications.
Every numbered part comes from another study and shows a few of its results, in no order.

Block 1 — method: protein-binding microarray; form: double-stranded DNA, one strand shown; medium: in vitro; tested at: 940 nM top; setting: 60-bp whole probe; added: salmon DNA 0.4 mg/ml; baseline: random background probes; direction: higher = stronger binding; all sequences stand within: GCCTAGCAC … GTCTTGATTCGCTTGACGCTGCTG
Target: Interferon regulatory factor 5, full length, phosphomimetic (IRF5, Homo sapiens, UniProt Q13568-2, residues 1-514, S451D/S453D/S456D/S462D)
Strand | fitted relative affinity
GTTGAGTTCTGTTGCAAAGGGTGCTAG | -0.0249 z-score
GACGGACTGGGACAGGGGACGTGCTAG | -0.636 z-score
ATGACAATGATGTTTTGAGTTGTGCTA | -0.124 z-score
AAACCATTTTTTTTCACTATGTGCTAG | 1.55 z-score
TCCTCTGTCATTTTCTCTTAGTGCTAG | 1.9 z-score
TTAGATTTCGGGTTTCGATTTGTGCTA | 5.61 z-score
TTAGGACTGGGTTTCGTTTAGTGCTAG | 3.67 z-score
GACGGTCTGGGTCTCGGGACGTGCTAG | 0.0258 z-score
TTAGGTCTCCTTCACCTTTAGTGCTAG | 0.327 z-score
CTCCTTTTAATTTTTAACGAGTGCTAG | 0.583 z-score
TTAGGACTGGACTCTGGGTTAGTGCTA | -0.194 z-score
TTAGATCGCAGACTGGATTAGTGCTAG | -0.581 z-score
TTAGGACGGGGTCTCGGTTAGTGCTAG | 1.49 z-score
GACGGACTGCTTCTCCCGACGTGCTAG | 0.223 z-score
TTAGGTTTGGGTTTCGGTTAGTGCTAG | 7.91 z-score
TTAGGTCTACTACTGCTTTAGTGCTAG | -0.388 z-score
GACGATCTCAGACTGGAGATGTGCTAG | -0.416 z-score
TCAATCATTGTTTTCAGTTTGTGCTAG | 0.93 z-score
TAGGCTCCAGGTTCTCTGAAGGTGCTA | -0.591 z-score

Block 2 — method: RNA Bind-n-Seq; form: RNA; medium: in vitro; tested at: 200 nM; setting: whole 134-nt RNA, ends assumed; added: 150 mM KCl; baseline: input library; direction: higher = stronger binding
Target: Ras GTPase-activating protein-binding protein 1, full length (G3BP1, Homo sapiens, UniProt Q13283)
Sequence of UniProt Q13283 (whole entry, looked up): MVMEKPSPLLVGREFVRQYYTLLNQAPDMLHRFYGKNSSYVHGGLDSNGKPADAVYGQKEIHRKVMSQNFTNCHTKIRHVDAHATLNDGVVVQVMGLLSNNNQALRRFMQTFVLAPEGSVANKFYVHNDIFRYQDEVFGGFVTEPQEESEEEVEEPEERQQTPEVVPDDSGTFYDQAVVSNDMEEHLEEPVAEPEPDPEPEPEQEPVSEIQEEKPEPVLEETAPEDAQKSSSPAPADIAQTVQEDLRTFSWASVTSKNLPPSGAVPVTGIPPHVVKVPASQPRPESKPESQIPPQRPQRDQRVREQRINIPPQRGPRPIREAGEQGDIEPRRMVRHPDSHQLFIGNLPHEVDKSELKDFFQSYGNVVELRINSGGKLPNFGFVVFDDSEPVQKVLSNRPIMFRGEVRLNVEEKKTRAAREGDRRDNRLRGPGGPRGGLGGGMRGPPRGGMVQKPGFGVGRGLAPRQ
All sequences stand within: GGGAGUUCUACAGUCCGACGAUC … UGGAAUUCUCGGGUGUCAAGG
Strand | log2 enrichment
AAUUCUCAUUUCUCGACAUAAAGCCUUGUCUAAAGUGAGAUGUUUUCCAGGUCAUACAUAGGUUUCUCCCUGGGGUAAUUGGAAGUUCUU | -1.71
AGUCCUGUGCUACACAUCGUAUGUACCGAAUCGGGUUUUUGGGUUUUUUUGGGAGGGAAAGUAUUAUGUUACGCCGUUCGGAUCUGCACU | -0.207
AAGUCCUGUGCUACACAUCGUAUGUACCGAAUCAAACCCCCAAAUUUAAACCCAAAAAAGUAUUAUGUUACGCCGUUCGGAUCUGCACUU | -0.312
AAGUCCUGUGCUACACAUCGUAUGUACCGAAUCGGGGAGGGGUGGGGAAAAAGGGGAAAGUAUUAUGUUACGCCGUUCGGAUCUGCACUU | 0.414
CUCAAGUCCUGUGCUACACAUCGUAUGUACCGAAUCGGAAAGGAAAGGGAAAGGAAAGUAUUAUGUUACGCCGUUCGGAUCUGCACUUCC | -0.773
GUCCUGUGCUACACAUCGUAUGUACCGAAUCGGGGUUUGGGGUUUUUUUGGGGUGGGGAAAGUAUUAUGUUACGCCGUUCGGAUCUGCAC | 0.553
UUUUCUGCAUGGACCGUGCCCUAGAAUUUGCCCCUGCCUGCCAUCGCUUCAAAAUCCUCAAGGCAGAAUGUUUAGCAAUGCUGGGUCGUU | -0.132
UUGUGGAAAACCCACAUGCUCCUCAGAAAGAUGAUGCCCUGGUGAUCACACACUACAACCGGACCCGACAGCAGGAAGAGAUGCUGGGGC | 0.482
UCAAGUCCUGUGCUACACAUCGUAUGUACCGAAUCGGUUUGGGUUUGGGUUUGGGAAAGUAUUAUGUUACGCCGUUCGGAUCUGCACUUC | -0.788

Block 3 — method: protein binding microarray; form: double-stranded DNA, one strand shown; medium: in vitro; tested at: not given; baseline: not given; direction: higher = stronger binding
Target: Histone acetyltransferase KAT6A, winged helix 2, GST fusion (KAT6A, Homo sapiens, UniProt Q92794, residues 85-181)
Setting: 8-mer, flanks averaged, mean of 2 arrays, mostly near background
Residues (chain): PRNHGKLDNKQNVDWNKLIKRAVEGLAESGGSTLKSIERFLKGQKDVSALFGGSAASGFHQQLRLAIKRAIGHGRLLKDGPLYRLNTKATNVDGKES
Strand | E-score
ACCCTGAC | -0.131
CCAATAAA | -0.0754
GAGACAAA | -0.0458
CGCCGGGA | 0.179
AGGTGAGC | -0.0721
GCGCCGTA | 0.128
CAAGCATC | -0.0426
CTCTCCCC | 0.0858
AATGTGCG | 0.065
CAGCATAC | -0.0393
GCGGACAC | 0.202
CCCTTCAA | -0.0583
CACGGCTA | 0.0628
ATGTCCCG | -0.049
AGGCCAGC | 0.0967
ATTCAACG | 0.00505
AAAAAGTG | -0.0402
AATGAGGA | -0.136
ATCCGATG | 0.0711
AATTCCAG | 0.0713

Block 4 — method: universal PBM; form: double-stranded DNA, one strand shown; medium: in vitro; tested at: 600 nM; direction: higher = stronger binding
Target: Sal-like protein 4, full length isoform A (SALL4, Homo sapiens, UniProt Q9UJQ4, residues 1-1053)
Sequence of UniProt Q9UJQ4 (whole entry, looked up): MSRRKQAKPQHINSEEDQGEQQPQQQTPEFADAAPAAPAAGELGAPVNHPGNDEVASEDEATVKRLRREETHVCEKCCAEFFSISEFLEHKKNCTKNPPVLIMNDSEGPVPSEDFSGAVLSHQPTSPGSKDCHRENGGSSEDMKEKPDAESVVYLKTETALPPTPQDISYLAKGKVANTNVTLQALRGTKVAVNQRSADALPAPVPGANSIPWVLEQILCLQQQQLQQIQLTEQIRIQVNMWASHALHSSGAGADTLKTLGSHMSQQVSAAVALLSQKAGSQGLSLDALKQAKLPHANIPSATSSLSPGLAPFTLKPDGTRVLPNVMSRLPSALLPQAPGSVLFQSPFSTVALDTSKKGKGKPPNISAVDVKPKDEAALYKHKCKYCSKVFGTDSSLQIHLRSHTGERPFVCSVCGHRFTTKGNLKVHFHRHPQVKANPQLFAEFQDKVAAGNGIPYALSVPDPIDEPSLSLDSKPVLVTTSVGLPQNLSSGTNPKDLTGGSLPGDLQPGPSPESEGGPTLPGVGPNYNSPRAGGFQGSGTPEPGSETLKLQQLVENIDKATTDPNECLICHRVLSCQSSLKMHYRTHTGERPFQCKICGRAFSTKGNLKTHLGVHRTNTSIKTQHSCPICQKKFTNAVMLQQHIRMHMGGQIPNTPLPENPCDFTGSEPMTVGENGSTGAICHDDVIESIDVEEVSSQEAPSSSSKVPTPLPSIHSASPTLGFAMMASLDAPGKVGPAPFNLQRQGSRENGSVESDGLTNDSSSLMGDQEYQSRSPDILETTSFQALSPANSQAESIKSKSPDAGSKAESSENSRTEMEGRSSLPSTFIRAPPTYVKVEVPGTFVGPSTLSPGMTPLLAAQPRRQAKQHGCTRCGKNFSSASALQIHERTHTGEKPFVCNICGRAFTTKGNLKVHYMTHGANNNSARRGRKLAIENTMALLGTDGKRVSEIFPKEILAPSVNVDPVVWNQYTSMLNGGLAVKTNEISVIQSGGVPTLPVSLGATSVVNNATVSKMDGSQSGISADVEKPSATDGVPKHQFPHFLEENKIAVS
Setting: 8-mer, flanks averaged, mean of replicates
Strand | E-score
AGATAGTG | 0.11
GAGGTAAC | -0.103
ATACCGCA | -0.0314
GTCGGGAA | -0.0142
GCTCCGCC | -0.355
GTCAGAAC | -0.125
ACACCTAG | -0.0639
GATCACGA | -0.0212
GCATCTGA | -0.173
ATCACGGA | 0.0903
AGCATTAA | 0.251
TACATTGA | 0.269
CCAGTCGG | -0.233
CTTTACAC | 0.0254
ATCCACTG | -0.139
AATATAGG | 0.332
GTCTTCAA | 0.208
GGGATCAA | 0.0346
